Published values gathered from unrelated publications.
Every numbered part comes from another study and shows a few of its results, in no order.

Study 1
Target: Myc proto-oncogene protein, bHLH-zipper, MAX partner unstated (MYC, Homo sapiens, UniProt P01106, residues 368-449)
UniProt P01106, sequence (368-449, looked up): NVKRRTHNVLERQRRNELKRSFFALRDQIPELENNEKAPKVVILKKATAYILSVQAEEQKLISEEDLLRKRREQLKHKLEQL
Technique: protein-binding microarray
Molecule type: double-stranded DNA, one strand shown
Sample: in vitro
Tested at: not given
Setting: k-mer, scored over probes, only values ≥0.25
Reading: higher = stronger binding
| Strand | E-score |
| --- | --- |
| GAGTGCAC | 0.268 |
| CGTGGGTA | 0.304 |
| CCATGCAA | 0.337 |
| CGTGATAG | 0.253 |
| CAGGTGGC | 0.386 |
| ACGTGGGC | 0.419 |
| CGTGTTTC | 0.311 |
| CCTCGCAC | 0.293 |
| AGAGCACA | 0.275 |
| ACACACAT | 0.338 |
| CGTGGAAC | 0.28 |
| ATCCCATG | 0.251 |
| CCTACCAC | 0.278 |
| CATGGACA | 0.373 |
| AATCCGCA | 0.251 |
| ATACCATG | 0.311 |
| CGCGTGCC | 0.45 |
| ACGCGGGC | 0.293 |
| GCGTCCAC | 0.254 |
| ACGCGAGG | 0.374 |
| AACCACAT | 0.311 |
| CCACGTGC | 0.496 |
| CCACCACC | 0.288 |
| TGGCCACA | 0.361 |
| CAGCATGG | 0.452 |

Study 2
Target: Sal-like protein 4, full length isoform A (SALL4, Homo sapiens, UniProt Q9UJQ4, residues 1-1053)
UniProt Q9UJQ4, sequence (whole entry, looked up): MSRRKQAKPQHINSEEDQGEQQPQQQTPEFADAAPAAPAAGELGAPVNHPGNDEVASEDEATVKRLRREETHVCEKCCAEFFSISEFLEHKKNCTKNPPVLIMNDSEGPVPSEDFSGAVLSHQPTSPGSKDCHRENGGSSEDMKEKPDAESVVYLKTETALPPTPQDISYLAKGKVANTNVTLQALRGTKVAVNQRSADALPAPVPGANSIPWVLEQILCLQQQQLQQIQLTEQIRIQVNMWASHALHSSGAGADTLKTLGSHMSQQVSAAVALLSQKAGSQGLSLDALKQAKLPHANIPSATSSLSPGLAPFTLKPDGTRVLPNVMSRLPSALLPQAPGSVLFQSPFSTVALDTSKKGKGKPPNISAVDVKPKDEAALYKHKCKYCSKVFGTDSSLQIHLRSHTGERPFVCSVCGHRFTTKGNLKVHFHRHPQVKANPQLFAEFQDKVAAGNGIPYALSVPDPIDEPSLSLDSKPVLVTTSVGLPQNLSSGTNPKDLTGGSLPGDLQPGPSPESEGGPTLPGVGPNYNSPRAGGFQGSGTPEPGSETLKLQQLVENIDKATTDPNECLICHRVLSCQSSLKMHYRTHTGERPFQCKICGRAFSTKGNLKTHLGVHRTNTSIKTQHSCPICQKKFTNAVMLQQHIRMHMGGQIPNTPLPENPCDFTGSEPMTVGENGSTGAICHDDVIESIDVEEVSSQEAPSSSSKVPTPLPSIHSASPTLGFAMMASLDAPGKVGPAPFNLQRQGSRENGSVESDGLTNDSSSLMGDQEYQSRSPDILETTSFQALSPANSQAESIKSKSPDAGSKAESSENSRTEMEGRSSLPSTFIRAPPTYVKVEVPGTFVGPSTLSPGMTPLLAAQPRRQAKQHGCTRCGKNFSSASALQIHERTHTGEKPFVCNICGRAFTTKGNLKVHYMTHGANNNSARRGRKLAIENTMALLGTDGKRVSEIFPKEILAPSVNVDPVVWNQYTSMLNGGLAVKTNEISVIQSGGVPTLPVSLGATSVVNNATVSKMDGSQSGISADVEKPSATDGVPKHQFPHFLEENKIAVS
Technique: universal PBM
Molecule type: double-stranded DNA, one strand shown
Sample: in vitro
Tested at: 600 nM
Setting: 8-mer, flanks averaged, mean of replicates
Reading: higher = stronger binding
| Strand | E-score |
| --- | --- |
| GCAGCCTA | -0.11 |
| ACCCTCGC | -0.215 |
| GGGGGGTA | -0.329 |
| AATAGTCA | 0.137 |
| GGCGAAAA | 0.0225 |
| TAAACATA | 0.351 |
| GAATTCCA | 0.125 |
| AACACCCA | -0.154 |
| GCGGGGGA | -0.24 |
| CGATTCCC | -0.106 |
| AGGCATGA | -0.101 |
| ATGGTTTC | 0.148 |
| CACTTCGG | -0.137 |
| GCGTTGTA | 0.0975 |
| GCGTACAC | -0.0471 |
| CAAGTTAA | 0.116 |
| AAATCAGT | 0.141 |
| AGCAGATA | 0.0777 |
| AAACAGAA | 0.254 |
| CCTGAGCG | -0.262 |
| ATTGCTGG | 0.0642 |
| AGCAAGAC | 0.123 |
| ACTGATGG | -0.0744 |
| GAATTAAA | 0.224 |
| CCTGCGGA | -0.207 |

Study 3
Target: Histone acetyltransferase KAT6A, winged helix 2, GST fusion (KAT6A, Homo sapiens, UniProt Q92794, residues 85-181)
Technique: protein binding microarray
Molecule type: double-stranded DNA, one strand shown
Sample: in vitro
Tested at: not given
Setting: 8-mer, flanks averaged, mean of 2 arrays, mostly near background
Relative to: not given
Reading: higher = stronger binding
Residues (chain): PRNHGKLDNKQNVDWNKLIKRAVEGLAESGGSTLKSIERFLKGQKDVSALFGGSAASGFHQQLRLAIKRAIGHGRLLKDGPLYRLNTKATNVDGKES
| Strand | E-score |
| --- | --- |
| AGAGCTCA | -0.11 |
| AAAAAGTA | 0.0819 |
| GCCTTTGA | -0.0574 |
| CATGAGCG | -0.111 |
| CTCGCTAA | 0.00925 |
| CCCTTGAC | -0.098 |
| ATTCCCTC | -0.0139 |
| CGGATTCA | -0.00234 |
| AGAGCTCG | 0.0988 |
| AGCGAGGA | 0.0746 |
| CATCGAAG | -0.01 |
| ATTTTGTA | 0.008 |
| AAAAGGTC | -0.0765 |
| GGCACCCC | -0.0773 |
| CGGCTATA | -0.00546 |
| AATCGAAT | 0.0372 |
| GAGCGTAA | 0.0404 |
| CTTTACTA | 0.14 |
| CTGGGGTA | -0.129 |
| CCGCCGCG | 0.244 |
| AAGACAGG | 0.0795 |
| CCGACTGC | -0.0322 |
| AGGACATG | -0.172 |
| GATATGTA | -0.0861 |
| CCCTTCAG | -0.164 |

Study 4
Target: RNA binding protein fox-1 homolog 2, RRM domain, GST-SBP tag (RBFOX2, Homo sapiens, UniProt O43251-10, residues 100-194)
Technique: RNA Bind-n-Seq
Molecule type: RNA
Sample: in vitro
Tested at: 365 nM
Setting: natural RNA segment, single round, ends assumed
Relative to: no-protein control
Reading: higher = stronger binding
Constant ends, left off below: GGGAGUUCUACAGUCCGACGAUC … UGGAAUUCUCGGGUGCCAA
Residues (chain): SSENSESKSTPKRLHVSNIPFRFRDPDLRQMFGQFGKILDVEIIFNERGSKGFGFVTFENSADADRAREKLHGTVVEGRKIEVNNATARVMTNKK
| Strand | RBNS enrichment (R) |
| --- | --- |
| UCAGAUUGCAUGGGGGAUUUUUAACAUAUUUGAAACUCAGGGGGAACAUGAUUAAGAACACAAACUGGUAGCUACACAUGAAGGUUUACUUGAGCUUUUGUGAUUCAAAG | 17.3 |
| ACUGUGGGUGAAAUGUUCUACACACCACACACUAGGCCAUUUUCAGAUCAGCAGUCACCCAUCGCUUAGCAUAGAAAUCCCAAAACCUCCAGCCCGGGAACACUAUAAGC | 0.303 |
| AAAUUUUGUAUCAUCAGGACUGACACCCAAUUUGACACUUUUUGUAUCUAGAAGACCCUCCAAAAAAGGAACCACAUAAGCACACAAGAAAAGAGUGCUAUGAUGUUCUU | 0.291 |
| AUUAUUCCCCCUAUCAUUCCUUUACAGUGCCUAGUGCUACUCAUUAUGUGUUCAUUGAAUUUGACUGACAUAGUUAAAAACUUAAGGUUUAUUUUAGACUUUCAAGGAAA | 0.474 |
| UCUGCCUUCCAGGUUGAAGAGGUUCUCCUGCCUCAGCCUCCUUAGUAGUGGGAUUACAGGUGCCCGCUACUAUGCCCGGCUAAUUUUUCUUUUGGUAUUUUUAGUAGAAA | 0.46 |
| CUCUCUUAACCCUUUCUCUGCUCCCAGCCUGCCUCACCAGGGAAGGUUGGAGGGGCCUCCCUCUGGCUUCUGCAUCUGCGCCAGCAAACAUCACUGCCGUUGGUCUCUCA | 3.38 |
| UUUGUUGCUUGUUGAGUAAGCAGCUGGCACGCCUGUGGAGGAGGAGGCCUUGCCUCAACGUUCCUGGGUCAGUCCCGAGUUCUCCCAAUGGCUUUGUGAAUGUAAAUAAG | 1.52 |
| CCCUGCACUCAAGGGCCAGACCACUCUCUGCAUGGACCAGACCAUCUUCCCAAACCCAUGGUGCUUUUUCCCCAACUCAACCUAGACUCCAAGGUGGGGAGGGAUGGGUC | 3.83 |
| AAGAAAGAGAUAAGGGACGCUACCUUGCUUUUCUGGCACAGGAAGCACAUGAUAAAGCAUGCUCAGAUGAGCUGGAACAGAUAUAGCUACCUGGUUCGUGUAAAUAAGAA | 3.17 |
| AAAAAAAUUCCUUUAACCCAAUUGGCCCAGCUCCUGCCUUUUUCAGGCUUCUUGCUAGGUUGUGUGACCUAUAUGUGUGUCUUCUCUGGUCUGGCCCCUCUUCAAGCCAU | 0.659 |
| CCUCAGGGACCACUCCCCCAGCACUUUUGUGUUUGGGUGAGGGAUGUUGGACAGAGCCCAUUUUUAUGUGCUGCAGGUUGGGGGUUGUGCUAACACUUUUGCUCUUGGUU | 0.561 |
| GUUAAGUCUGGCUAUAUUUGAAGGUUAUGACAUAAAGCCAGCAGCUUUAAUGGCUUUUAUGAAGUGAAGUGACUUGUUUAACUCCUAUUUAUAUUUCUCUGUGCAUAUAU | 2.68 |

Study 5
Target: Phosphate system positive regulatory protein PHO4, full length, GST-tagged (PHO4, Saccharomyces cerevisiae, UniProt P07270, residues 1-312)
Technique: competition protein-binding microarray
Molecule type: double-stranded DNA, one strand shown
Sample: in vitro
Tested at: 2 µM
Setting: whole 60-bp probe, lowest competitor level
With: Cbf1 competitor, 0.05 µM
Reading: higher = stronger binding
Constant ends, left off below: … GTCTTGATTCGCTTGACGCTGCTG
Target sequence (chain): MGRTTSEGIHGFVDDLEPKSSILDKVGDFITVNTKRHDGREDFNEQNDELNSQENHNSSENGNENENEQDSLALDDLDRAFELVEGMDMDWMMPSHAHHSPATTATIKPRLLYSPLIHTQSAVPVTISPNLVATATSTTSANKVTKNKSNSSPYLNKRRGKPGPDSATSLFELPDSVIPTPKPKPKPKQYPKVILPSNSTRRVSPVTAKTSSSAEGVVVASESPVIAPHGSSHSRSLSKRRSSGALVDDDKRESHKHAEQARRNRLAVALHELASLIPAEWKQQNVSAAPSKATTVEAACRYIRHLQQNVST
| Strand | fluorescence intensity [a.u.] |
| --- | --- |
| CTAACGAAGGTTTGCGCTGTGGGTGACAAGCCAAGT | 3420 |
| CTGACCTGACATTTGTTAAAAAGGACGTAAGATCGC | 3190 |
| CGGGGTTAAGTTTGTCACCGCACTTGCTTGCAGCAG | 3190 |
| AAACTTTGGCCTTAGCCCGTGGGTATGTTACCATTG | 8360 |
| ACACTTTGGTTCTTCGACATGATAAAGTAAAACAAC | 4420 |
| AAAGTGCCCCCCGGCGTCGTGATGGACCTGATTGGA | 5220 |
| ATATTTTATCATCCACACGTGGTGATATTTCAACGA | 15400 |
| GAAATATGTTGGGAGCACATGTTCGACCCATTACAT | 12300 |
| TGTGCAGACTTCCATCACGTGAACCACAGTAACCTA | 12500 |
| CCGCGTTGAGCAGCTCTCCTGCGGGCTTTCACAGAG | 4130 |
| TATTCCGGAAGATATCAGGTGAGAGAGAAAAGACAG | 4560 |
| ACATCTCCATTGATTTGTTCTAATAGCATTTCATCC | 3740 |
| AAAGCGGTAATTTGAGGGGTGGGTGCAGATATCTAT | 4710 |
| GACGGGCGCTGGGGACTCGTGCCGATCCGGGACTGG | 10100 |
| AACGACACCGGCACCTTCGTGACGGCCGACTAATGG | 4880 |
| TGAAGCTATTACTGGCACGCATCCATATCAGCTTAG | 9120 |
| TGTACTCGGTCAACACACGTGCACAGAGCACCTACT | 17500 |
| TGAAAATACCATTTGGGAAGGTAACAAAATCATACA | 3040 |
| CTAACGAAGGTTTGGCCCGTGGGTGACAAGCCAAGT | 9710 |
| CTATCGGCCGCCACTGTCGTGTCTGAGTAGACGGGA | 5390 |
| CGGGGTTAAGTTTGTCACGCGACTTGCTTGCAGCAG | 6400 |
| TGAAAAATTTTCGGTAGCGTGCTTTAGCCGGTATAA | 7170 |
| AAAGCGGTAATTTGCGCAGTGGGTGCAGATATCTAT | 3780 |
| CTTCATTCAAAGGTCCACGTTCAATTAAGTAACAAG | 11800 |
| ACCAACAATTAAAAGCACGTGATGGGTTCCAGGACT | 17700 |

Some of these lines once more (study 2):
| Strand | E-score |
| --- | --- |
| GCGGGGGA | -0.24 |
| CGATTCCC | -0.106 |
| AGGCATGA | -0.101 |
| ATGGTTTC | 0.148 |
| CACTTCGG | -0.137 |
| GCGTTGTA | 0.0975 |
| GCGTACAC | -0.0471 |
| CAAGTTAA | 0.116 |
| AAATCAGT | 0.141 |
| AGCAGATA | 0.0777 |
| AAACAGAA | 0.254 |
| CCTGAGCG | -0.262 |
| ATTGCTGG | 0.0642 |
| AGCAAGAC | 0.123 |
| ACTGATGG | -0.0744 |
